Experimental data gathered from unrelated publications.
± gives the spread as reported. ≈ marks a conversion by molar mass, not a printed value.

Nc1ccn([C@H]2C[C@H](O)[C@](CO)(CF)O2)c(=O)n1
IC50 (HIV-1 M184V; MT4): > 1000 nM

CC[C@H](C)[C@H](NC(=O)[C@H](CC(C)C)NC(=O)[C@H](Cc1c[nH]c2ccccc12)NC(=O)[C@H](CCC(N)=O)NC(=O)[C@@H](NC(=O)[C@H](Cc1ccccc1)NC(=O)[C@H](C)NC(=O)[C@H](CCCCNC(=O)COCCOCCNC(=O)COCCOCCNC(=O)CC[C@H](NC(=O)CCCCCCCCCCCCCCCCCCC(=O)O)C(=O)O)NC(=O)[C@H](CCC(N)=O)NC(=O)[C@H](C)NC(=O)[C@@H](NC(=O)[C@H](CCCCN)NC(=O)[C@H](CC(=O)O)NC(=O)[C@H](CC(C)C)NC(=O)C(C)(C)NC(=O)[C@@H](NC(=O)[C@H](CO)NC(=O)[C@H](Cc1ccc(O)cc1)NC(=O)[C@H](CC(=O)O)NC(=O)[C@H](CO)NC(=O)[C@@H](NC(=O)[C@H](Cc1ccccc1)NC(=O)[C@@H](NC(=O)CNC(=O)[C@H](CCC(=O)O)NC(=O)C(C)(C)NC(=O)[C@@H](N)Cc1ccc(O)cc1)[C@@H](C)O)[C@@H](C)O)[C@@H](C)CC)[C@@H](C)CC)C(C)C)C(=O)N[C@@H](C)C(=O)NCC(=O)NCC(=O)N1CCC[C@H]1C(=O)N[C@@H](CO)C(=O)N[C@@H](CO)C(=O)NCC(=O)N[C@@H](C)C(=O)N1CCC[C@H]1C(=O)N1CCC[C@H]1C(=O)N1CCC[C@H]1C(=O)N[C@@H](CO)C(N)=O
subjects with treatment-emergent ADA (refers to: anti-drug antibodies; healthy subjects; 0.5 mg, postbaseline, multiple ascending dose): 0%

Cn1c(Cn2ccc(C(F)(F)F)c(Oc3cc(Cl)cc(C#N)c3)c2=O)n[nH]c1=O
EC50 (HIV-1; viral replication, single-round infection; RT mutant E40K): 1.5 ± 0.5 nM

CNC(=O)[C@@H](NC(=O)[C@H](CC(C)C)[C@H](O)C(=O)NO)C(C)(C)C
remaining activity (Daboia russelii venom proteases (SVMP); protease activity, inhibitor; MH population; 1 µM, together with: azocasein substrate; relative to: venom alone): 0%

NC(=O)CCNC(=O)c1ccccc1S
EC50 (HIV-1; viral replication; human PBMC, subtype E 93TH051, CCR5-tropic clinical isolate): 5250 ± 2780 nM

CNc1nc(N)ncc1-c1cn([C@@H]2O[C@H](CO[P@@](=O)(N[C@@H](C)C(=O)OC(C)C)Oc3ccccc3)[C@@H](O)[C@@]2(C)F)cn1
antiviral activity (human cytomegalovirus; concentration not given): inactive

Cc1cc(/C=C/C#N)cc(C)c1-n1cnc2cnc(Nc3ccc4cc(C#N)ccc4c3)nc21
EC50 (HIV-1; viral replication, single-round infection; RT mutant K101P/V179I): 96.9 ± 16.5 nM

Cn1cnc(Cn2c(=O)[nH]/c(=N\c3cc4cn(C)nc4cc3Cl)n(Cc3cc(F)c(F)cc3F)c2=O)n1
patients with adverse event (human, moderate renal impairment; oral, 375 mg, treatment-related decreased GFR, Mild severity): 0%

Cc1cc(/C=C/C#N)cc(C)c1Nc1nc(Nc2ccc(/C=C/C#N)cc2)ncc1N
EC50 (HIV-1; viral replication, single-round infection; RT mutant E138K/M184I): 6.1 ± 0.9 nM

CNc1nc(N)nc2c1ncn2[C@H]1C[C@H](O)[C@](CO)(CF)O1
IC50 (HIV-1 T215F; MTT; MT4): 189 ± 68.5 nM

CCCC(=O)OCSc1ccccc1C(=O)NCCC(N)=O
EC50 (HIV-1; viral replication; human PBMC, group O BCF02, CCR5-tropic clinical isolate): 9980 ± 8370 nM

CC(C)(C)NCc1ccc(Nc2ccnc3cc(Cl)ccc23)cc1O
AC50 (SARS-CoV-2; cytopathic effect, cell-based CPE; USA_WA1/2020; round 2, 5-point dilution): 3160 nM

Nc1nc(F)nc2c1ncn2[C@H]1C[C@H](O)[C@](CO)(CF)O1
IC50 (HIV-1 M184V; MTT; MT4): > 1000 nM

Cc1cn([C@H]2C[C@H](N=[N+]=[N-])[C@@H](CO)O2)c(=O)[nH]c1=O
EC50 (HIV-1; viral replication; human PBMC, subtype F 93BR029, CCR5-tropic clinical isolate): 7.07 ± 3.95 nM

C[C@]1(CO)O[C@@H](n2cnc3c(=O)[nH]c(N)nc32)C[C@@H]1O
IC50 (HIV-1 K65R; MT4): 189 nM

Nc1ncnc2c([C@@H]3N[C@H](CO)[C@@H](O)[C@H]3O)c[nH]c12
inhibition (Venezuelan equine encephalitis virus; viral replication; HeLa, SH3; 25 µM): 0.5%

CCCN(CCC)CCNC(=O)c1cc(-c2ccc(Br)s2)nc2ccccc12
AC50 (SARS-CoV-2; cytopathic effect, cell-based CPE; USA_WA1/2020): 11200 nM

O=C1Nc2ccc(Cl)cc2[C@@](C#CC2CC2)(C(F)(F)F)O1
EC50 (HIV-1; viral replication, single-round infection; RT mutant K101E/M184I): 0.9 ± 0.2 nM

CC[C@]1(CO)O[C@@H](n2cnc3c(N)nc(N)nc32)C[C@@H]1O
IC50 (HIV-1 K65R; MT4): 10.2 nM

Cc1cc(/C=C/C#N)cc(C)c1-n1cnc2cnc(Nc3ccc(/C=C/C#N)cc3)nc21
EC50 (HIV-1; viral replication, single-round infection; RT mutant Y181I): 3090 ± 221 nM

N#CC(C#N)=NNc1cccc(Cl)c1
MIC (Escherichia coli; tetracycline-resistant (pBR322)): 56 µM (≈ 11.5 µg/mL)
